Assay results pooled from the literature.
Numbers after ± are the reported error.

For `C=CCC1=C[C@@]2(C[C@H](O)C(C)(C)O2)C2=C(C[C@H]3C[C@H]4C(=C)CCCC(C)(C)[C@@H]4C[C@@]3(C)O2)C1=O`, the selectivity index was 4.3 (coxsackievirus B3; cytopathic effect; Vero, Nancy; relative to: CC50 over IC50).
For `CC(=O)N[C@H](C(=O)N[C@H](C(=O)N[C@@H](CCCNC(=N)N)C(=O)N1Cc2ccccc2C[C@H]1C(=O)N[C@@H](Cc1ccccc1)C(N)=O)C1CCCCC1)C(C)C`, the cytokine level was under 0.3 pg/mL (human PBMC; Bio-Plex multiplex, refers to: IL-13; 250 µg/mL, 24 h).
With `N#Cc1ccc(-c2ccc(-c3ccco3)o2)nc1` the viability was 125 ± 10.1% (Salmonella typhimurium; liquid broth OD; TA1535; 25 µM, 15 h; relative to: growth).
`CC(C)CCC[C@@H](C)[C@H]1CCC([C@@H]2CC[C@H]3C[C@@H](O)CC[C@]3(C)[C@H]2O)[C@]1(C)CC(=O)O` (stereo partly shown) has a viability of 85.4% (HEK293T; CellTiter-Blue; concentration not given).
`N=C(N)c1ccc(-c2ccc(-c3ccco3)o2)cc1` gave a viability of 40.8 ± 2.5% (Salmonella typhimurium; liquid broth OD; TA1535; 100 µM, 15 h; relative to: growth).
With `C=CCC1=C[C@@]2(C[C@@H](O)C(C)(C)O2)C2=C(C[C@H]3C[C@@H]4[C@@H](C[C@@]3(C)O2)C(=C)CCCC4(C)C)C1=O` the selectivity index was 1.7 (coxsackievirus B3; cytopathic effect; Vero, Nancy; relative to: CC50 over IC50).
For `N#Cc1ccc(-c2ccc(-c3cccs3)o2)nc1`, the viability was 117 ± 9.6% (Salmonella typhimurium; liquid broth OD; TA1535; 100 µM, 15 h; relative to: growth).
`[64Cu+2].c1ccc(CNCc2ccc(CN3CCCN4CCNCCCN(CC4)CC3)cc2)nc1` gave a tissue uptake of 6.92 ± 2.62 %ID/g (CXCR4; NOD/SCID mouse, U87 and U87-stb-CXCR4 xenografts, bladder; iv, 90 min, ex vivo, added: AMD3465 25 mg/kg sc before tracer).
With `O=C(O)CCC(NP(=O)(O)OCCC[C@@H](NC(=O)CC[C@H](NC(=O)CCCCCNC(=O)c1ccc([18F])cc1)C(=O)O)C(=O)O)C(=O)O` (stereo partly shown) the tracer uptake was 0.341 %ID/g (CWR22Rv1 tumour model; host not given, lung; 1 h, tumour-bearing).
`Cc1cc(C#N)cc(C)c1Oc1nc(NC2CCN(Cc3ccc([N+](=O)[O-])cc3)CC2)nc2ccccc12` has a selectivity index of over 16.6 (HIV-1; TZM-bl, NL4-3 wild type; relative to: CC50 over EC50).
`N=C(N)c1ccc(-c2ccc(-c3cccs3)o2)cc1` gave a viability of 104 ± 9.8% (Salmonella typhimurium; liquid broth OD; TA1535; 12.5 µM, 15 h; relative to: growth).
For `[99Tc+].[C-]#[N+]CC(C)(C)OC.[C-]#[N+]CC(C)(C)OC.[C-]#[N+]CC(C)(C)OC.[C-]#[N+]CC(C)(C)OC.[C-]#[N+]CC(C)(C)OC.[C-]#[N+]CC(C)(C)OC`, the total efflux was 89.4 ± 1.8% (human sandwich-cultured hepatocytes; 20 min).
For `[64Cu+2].c1cnc(CNCc2ccc(CN3CCCN4CCNCCCN(CC4)CC3)cc2)nc1`, the tissue uptake was 4.78 ± 0.21 %ID/g (CXCR4 (human); NOD/SCID mice, U87 xenografts, U87 control tumour; 30 min post-injection).

Some of these lines once more:
With `C=CCC1=C[C@@]2(C[C@@H](O)C(C)(C)O2)C2=C(C[C@H]3C[C@@H]4[C@@H](C[C@@]3(C)O2)C(=C)CCCC4(C)C)C1=O` the selectivity index was 1.7 (coxsackievirus B3; cytopathic effect; Vero, Nancy; relative to: CC50 over IC50).
